Assay results pooled from the literature.
Protocols differ between the studies behind these lines. “And” joins repeats or separate records; there may be more than shown. ± gives the spread as reported.
rocR: Cyclic di-GMP phosphodiesterase RocR (rocR, Pseudomonas aeruginosa, UniProt Q9HX69)
Aminopeptidase N: Aminopeptidase N (Neisseria meningitidis, UniProt Q9JYV4)
Chain of UniProt P49841 (whole entry, looked up): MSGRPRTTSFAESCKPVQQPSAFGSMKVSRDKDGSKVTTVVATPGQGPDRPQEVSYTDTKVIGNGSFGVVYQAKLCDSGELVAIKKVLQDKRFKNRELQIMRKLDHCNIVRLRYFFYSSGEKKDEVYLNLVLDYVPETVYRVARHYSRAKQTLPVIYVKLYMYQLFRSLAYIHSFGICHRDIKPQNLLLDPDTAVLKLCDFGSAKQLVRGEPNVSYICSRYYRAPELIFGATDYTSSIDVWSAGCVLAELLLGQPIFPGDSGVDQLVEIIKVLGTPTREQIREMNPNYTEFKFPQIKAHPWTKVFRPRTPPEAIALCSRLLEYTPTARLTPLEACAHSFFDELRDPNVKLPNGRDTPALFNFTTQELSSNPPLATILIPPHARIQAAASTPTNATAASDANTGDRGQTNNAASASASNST
Chain of UniProt P33533 (whole entry, looked up): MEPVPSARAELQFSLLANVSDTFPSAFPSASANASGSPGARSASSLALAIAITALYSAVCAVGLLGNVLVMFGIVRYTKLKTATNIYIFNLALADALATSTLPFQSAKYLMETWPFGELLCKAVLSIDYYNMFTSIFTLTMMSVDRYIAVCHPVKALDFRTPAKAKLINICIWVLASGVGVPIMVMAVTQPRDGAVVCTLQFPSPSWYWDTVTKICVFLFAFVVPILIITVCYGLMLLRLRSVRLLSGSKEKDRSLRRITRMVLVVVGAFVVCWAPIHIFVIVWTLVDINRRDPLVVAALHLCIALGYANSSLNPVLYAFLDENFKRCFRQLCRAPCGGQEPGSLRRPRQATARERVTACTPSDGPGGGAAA
Chain of UniProt P34913 (whole entry, looked up): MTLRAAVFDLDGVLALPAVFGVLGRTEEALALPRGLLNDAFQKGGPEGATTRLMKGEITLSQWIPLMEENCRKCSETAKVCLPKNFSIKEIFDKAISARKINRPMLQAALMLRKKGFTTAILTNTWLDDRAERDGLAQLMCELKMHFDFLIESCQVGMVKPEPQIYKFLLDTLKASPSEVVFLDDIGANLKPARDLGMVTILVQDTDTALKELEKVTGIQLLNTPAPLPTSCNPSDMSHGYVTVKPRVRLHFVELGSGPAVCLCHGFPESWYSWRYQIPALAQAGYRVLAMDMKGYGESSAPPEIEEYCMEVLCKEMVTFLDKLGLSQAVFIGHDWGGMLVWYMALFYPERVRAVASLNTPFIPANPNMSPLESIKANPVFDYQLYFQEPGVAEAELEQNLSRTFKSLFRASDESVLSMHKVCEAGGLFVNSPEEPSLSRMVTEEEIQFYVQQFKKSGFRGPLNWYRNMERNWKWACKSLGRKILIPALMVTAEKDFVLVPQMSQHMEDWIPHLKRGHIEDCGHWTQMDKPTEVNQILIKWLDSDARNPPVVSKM
Chain of UniProt P48029 (whole entry, unmodified, looked up): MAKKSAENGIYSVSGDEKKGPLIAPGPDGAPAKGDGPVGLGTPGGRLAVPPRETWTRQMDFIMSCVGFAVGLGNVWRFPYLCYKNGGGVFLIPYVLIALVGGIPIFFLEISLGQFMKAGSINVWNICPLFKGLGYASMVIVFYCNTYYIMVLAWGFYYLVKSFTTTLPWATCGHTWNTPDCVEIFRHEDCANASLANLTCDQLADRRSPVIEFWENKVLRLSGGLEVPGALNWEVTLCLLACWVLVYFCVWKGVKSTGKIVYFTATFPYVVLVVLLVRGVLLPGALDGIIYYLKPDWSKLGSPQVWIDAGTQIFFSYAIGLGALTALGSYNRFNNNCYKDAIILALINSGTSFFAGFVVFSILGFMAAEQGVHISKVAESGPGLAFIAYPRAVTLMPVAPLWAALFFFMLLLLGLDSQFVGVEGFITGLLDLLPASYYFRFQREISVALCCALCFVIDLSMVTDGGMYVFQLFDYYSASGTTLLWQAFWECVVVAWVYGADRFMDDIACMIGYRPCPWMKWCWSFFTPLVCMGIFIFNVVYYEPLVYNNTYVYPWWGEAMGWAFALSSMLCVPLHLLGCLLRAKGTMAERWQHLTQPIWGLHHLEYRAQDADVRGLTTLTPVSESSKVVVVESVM
Chain of UniProt Q9H008 (whole entry, looked up): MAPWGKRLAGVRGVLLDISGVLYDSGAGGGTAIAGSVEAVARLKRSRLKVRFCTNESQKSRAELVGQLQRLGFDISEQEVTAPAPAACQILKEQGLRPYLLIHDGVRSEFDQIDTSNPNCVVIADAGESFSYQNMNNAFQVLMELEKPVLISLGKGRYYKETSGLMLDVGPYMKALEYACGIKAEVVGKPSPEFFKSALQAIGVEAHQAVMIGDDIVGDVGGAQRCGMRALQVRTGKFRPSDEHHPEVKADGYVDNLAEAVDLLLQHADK
Chain of UniProt P22303 (whole entry, looked up): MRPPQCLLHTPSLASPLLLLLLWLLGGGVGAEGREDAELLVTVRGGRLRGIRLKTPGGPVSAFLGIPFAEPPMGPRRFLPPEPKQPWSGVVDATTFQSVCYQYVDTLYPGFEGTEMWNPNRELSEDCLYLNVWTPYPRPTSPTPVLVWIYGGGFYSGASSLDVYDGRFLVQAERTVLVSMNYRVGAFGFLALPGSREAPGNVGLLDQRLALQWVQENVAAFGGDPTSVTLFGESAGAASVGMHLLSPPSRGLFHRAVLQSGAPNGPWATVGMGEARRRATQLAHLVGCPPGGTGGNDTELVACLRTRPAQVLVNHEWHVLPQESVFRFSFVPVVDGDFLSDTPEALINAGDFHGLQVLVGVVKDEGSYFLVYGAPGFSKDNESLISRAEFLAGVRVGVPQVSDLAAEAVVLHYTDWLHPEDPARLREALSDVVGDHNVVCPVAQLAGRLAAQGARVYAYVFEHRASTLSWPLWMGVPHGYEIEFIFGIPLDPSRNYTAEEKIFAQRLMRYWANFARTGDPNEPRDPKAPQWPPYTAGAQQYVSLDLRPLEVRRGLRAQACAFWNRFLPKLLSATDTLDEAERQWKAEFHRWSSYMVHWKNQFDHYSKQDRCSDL
Chain of UniProt P20936 (whole entry, unmodified, looked up): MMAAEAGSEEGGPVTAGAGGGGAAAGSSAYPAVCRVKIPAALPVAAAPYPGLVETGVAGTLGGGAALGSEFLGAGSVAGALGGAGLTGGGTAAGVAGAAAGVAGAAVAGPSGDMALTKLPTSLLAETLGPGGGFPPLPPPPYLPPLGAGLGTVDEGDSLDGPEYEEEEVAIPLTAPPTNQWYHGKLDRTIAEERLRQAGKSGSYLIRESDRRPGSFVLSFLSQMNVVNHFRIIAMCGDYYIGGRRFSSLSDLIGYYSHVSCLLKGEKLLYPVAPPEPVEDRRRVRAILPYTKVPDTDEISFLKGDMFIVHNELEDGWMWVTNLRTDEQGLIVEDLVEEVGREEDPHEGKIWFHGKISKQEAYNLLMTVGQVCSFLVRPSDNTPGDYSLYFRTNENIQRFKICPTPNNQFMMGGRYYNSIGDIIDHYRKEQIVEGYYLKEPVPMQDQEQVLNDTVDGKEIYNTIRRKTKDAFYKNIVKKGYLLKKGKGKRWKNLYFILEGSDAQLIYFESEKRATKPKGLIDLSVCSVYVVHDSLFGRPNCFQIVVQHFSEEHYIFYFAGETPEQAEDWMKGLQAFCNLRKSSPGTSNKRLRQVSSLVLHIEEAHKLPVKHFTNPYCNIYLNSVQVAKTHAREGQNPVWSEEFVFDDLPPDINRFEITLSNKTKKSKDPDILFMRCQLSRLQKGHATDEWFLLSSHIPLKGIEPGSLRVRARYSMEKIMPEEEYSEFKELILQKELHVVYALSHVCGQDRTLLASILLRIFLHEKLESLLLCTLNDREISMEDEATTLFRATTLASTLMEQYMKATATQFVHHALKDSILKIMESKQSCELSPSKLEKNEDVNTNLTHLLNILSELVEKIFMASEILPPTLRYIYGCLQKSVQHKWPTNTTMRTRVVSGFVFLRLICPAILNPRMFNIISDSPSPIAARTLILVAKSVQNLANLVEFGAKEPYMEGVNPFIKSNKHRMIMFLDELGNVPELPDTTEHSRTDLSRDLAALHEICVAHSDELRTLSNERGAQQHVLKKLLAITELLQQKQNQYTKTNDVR
Chain of UniProt Q9Y251 (whole entry, looked up): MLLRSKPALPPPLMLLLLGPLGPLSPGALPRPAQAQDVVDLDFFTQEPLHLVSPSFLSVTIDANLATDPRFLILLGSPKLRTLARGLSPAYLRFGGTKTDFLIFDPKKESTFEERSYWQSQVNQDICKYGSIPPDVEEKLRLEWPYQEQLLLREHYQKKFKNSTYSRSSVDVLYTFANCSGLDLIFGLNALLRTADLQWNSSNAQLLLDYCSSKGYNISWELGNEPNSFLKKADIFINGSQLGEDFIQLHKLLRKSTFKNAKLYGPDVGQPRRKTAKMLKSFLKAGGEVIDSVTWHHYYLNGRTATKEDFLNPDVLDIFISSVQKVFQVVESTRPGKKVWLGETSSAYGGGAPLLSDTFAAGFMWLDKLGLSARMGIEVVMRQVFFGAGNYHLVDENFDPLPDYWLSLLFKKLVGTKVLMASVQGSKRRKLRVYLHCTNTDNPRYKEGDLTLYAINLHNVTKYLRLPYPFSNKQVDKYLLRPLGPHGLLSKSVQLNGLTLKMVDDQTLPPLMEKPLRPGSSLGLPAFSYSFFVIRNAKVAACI
Chain of UniProt Q8C7D2 (whole entry, unmodified, looked up): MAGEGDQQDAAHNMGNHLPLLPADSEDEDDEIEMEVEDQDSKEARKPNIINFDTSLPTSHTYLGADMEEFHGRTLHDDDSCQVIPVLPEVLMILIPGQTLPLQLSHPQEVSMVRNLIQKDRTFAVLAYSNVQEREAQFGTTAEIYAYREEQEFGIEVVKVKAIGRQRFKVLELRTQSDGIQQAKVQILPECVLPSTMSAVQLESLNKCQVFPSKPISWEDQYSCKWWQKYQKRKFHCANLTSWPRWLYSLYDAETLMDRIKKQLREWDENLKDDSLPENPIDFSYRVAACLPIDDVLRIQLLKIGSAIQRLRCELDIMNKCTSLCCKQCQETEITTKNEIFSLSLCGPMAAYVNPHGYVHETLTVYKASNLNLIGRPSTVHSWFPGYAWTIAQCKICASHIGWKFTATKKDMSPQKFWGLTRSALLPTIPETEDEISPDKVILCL

Compound	target	test	test system	setting	how to read	endpoint	value
CC[C@H](C)[C@H](NC(=O)[C@H](Cc1c[nH]cn1)NC(=O)[C@H](CCCCNC(=O)[C@@H](NC(=O)[C@H](CCCCN)NC(=O)CSC[C@H](NC(=O)[C@H](Cc1ccccc1)NC(=O)[C@H](CCCCNC(=O)[C@H](CC(C)C)NC(=O)[C@@H]1CCCN1C(=O)[C@H](CCCCN)NC(=O)C[C@@H]1O[C@@H](C)[C@@H](O)[C@@H](O)[C@@H]1O)NC(=O)[C@H](CC(C)C)NC(=O)[C@@H]1CCCN1C(=O)[C@H](CCCCN)NC(=O)c1ccc(O[C@@H]2O[C@H](CO)[C@H](O)[C@H](O)[C@H]2O)cc1)C(N)=O)[C@@H](C)CC)NC(=O)[C@@H](NC(=O)[C@H](CCCCN)NC(=O)CSC[C@H](NC(=O)[C@H](Cc1ccccc1)NC(=O)[C@H](CCCCNC(=O)[C@H](CC(C)C)NC(=O)[C@@H]1CCCN1C(=O)[C@H](CCCCN)NC(=O)C[C@@H]1O[C@@H](C)[C@@H](O)[C@@H](O)[C@@H]1O)NC(=O)[C@H](CC(C)C)NC(=O)[C@@H]1CCCN1C(=O)[C@H](CCCCN)NC(=O)c1ccc(O[C@@H]2O[C@H](CO)[C@H](O)[C@H](O)[C@H]2O)cc1)C(N)=O)[C@@H](C)CC)C(N)=O	Fucose-binding lectin PA-IIL (lecB, Pseudomonas aeruginosa, UniProt Q9HYN5)	binding, isothermal titration calorimetry		divided by fucoside copies	relative to: monovalent fucoside KD over ligand KD	relative potency per fucoside	1.3
O=C(O)CCCC(=O)O	Acetylcholinesterase (ACHE, Homo sapiens, UniProt P22303)	enzyme activity, inhibitor		125 µg/mL		inhibition	51.1 ± 2.18%
CC[C@H](C)[C@H](NC(=O)[C@H](CC(N)=O)NC(=O)[C@H](CCC(=O)O)NC(=O)[C@H](CCC(=O)O)NC(=O)[C@H](CCC(=O)O)NC(=O)[C@H](CC(N)=O)NC(=O)[C@H](CCCNC(=N)N)NC(=O)[C@@H]1CCCN1C(=O)[C@H](CCCCN)NC(=O)[C@@H](NC(=O)[C@@H](NC(=O)[C@H](C)NC(=O)[C@H](CC(=O)O)NC(=O)[C@H](CCSC)NC(=O)[C@@H]1CCCN1C(=O)[C@H](CCC(=O)O)NC(=O)[C@H](C)NC(=O)[C@H](Cc1ccc(OP(=O)(O)O)cc1)NC(=O)[C@H](CC(=O)O)NC(=O)[C@H](CO)NC(=O)[C@@H]1CCCN1C(=O)[C@H](CC(=O)O)NC(C)=O)C(C)C)C(C)C)C(=O)N[C@@H](Cc1ccc(OP(=O)(O)O)cc1)C(=O)N[C@@H](CO)C(=O)N[C@H](C(=O)N1CCC[C@H]1C(=O)N[C@@H](Cc1c[nH]cn1)C(=O)N[C@@H](CC(=O)O)C(=O)N[C@@H](CO)C(N)=O)C(C)C	Ras GTPase-activating protein 1, SH2-SH3-SH2 region (RASA1, Homo sapiens, UniProt P20936, C236S/C261S/C372S/C402S)	isothermal titration calorimetry		concentration not given, pH 8.0, together with: doubly phosphorylated p190RhoGAP peptide		binding enthalpy	-31.1 ± 4.78 kcal/mol
CC(=O)NCC(=O)N[C@@H](CO)C(=O)N[C@@H](CCCCNP(=O)(O)O)C(=O)NCC(=O)NCC(N)=O	Phospholysine phosphohistidine inorganic pyrophosphate phosphatase (LHPP, Homo sapiens, UniProt Q9H008)	substrate		100 µM, pH 7.8		first-order rate constant	4.24e-05 s⁻¹
C#C[C@@]12CC[C@H]([C@H](C)CCCC(C)C)[C@@]1(C)CC[C@H]1C2=CCC2C(C)(C)[C@@H](O)CC[C@@]21C (some centres unmarked)	Sterol 14-alpha demethylase (CYP51, Trypanosoma cruzi, UniProt Q7Z1V1)	spectral binding		type I spin shift		maximal high-spin heme content	35 to 40%
O=C(NC1(Cc2cccc(F)c2)CCC1)c1ccc(S(=O)(=O)F)cc1	Sodium- and chloride-dependent creatine transporter 1 (SLC6A8, Homo sapiens, UniProt P48029, P544L)	PathHunter trafficking	U-2 OS expressing SLC6A8	24 h	relative to: DMSO	maximal surface localization	~2 fold
Cn1cc(-c2cccc(CN3CCC4(CC3)COc3c4ccc4c3CN([C@H]3CCC(=O)NC3=O)C4=O)c2)cn1	Ikzf2/Crbn (Mus musculus, UniProt P81183+Q8C7D2, I391V)		mouse Crbn I391V, thymus	oral, 10 mg/kg single dose, 6 h		degradation	62%
CC(=O)N[C@H]1C(O)O[C@H](CO)[C@@H](O[C@@H]2O[C@H](CO)[C@H](O)[C@H](O)[C@H]2O)[C@@H]1O (some centres unmarked)	Galectin-3 (LGALS3, Homo sapiens, UniProt P17931)	isothermal titration calorimetry		concentration not given, full-length protein		binding stoichiometry	0.94
CCOC(=O)/C(C#N)=C/c1cccc(C(N)=O)c1	Genome polyprotein, 3C protease (Human enterovirus D68, UniProt Q68T42, C1641Y/I1565V/I1594T/R1603K/Y1579H)	ITC	enterovirus D68	concentration not given, 25 °C, together with: DTT 10 mM		binding enthalpy	-12 kcal/mol
CC(C)C[C@H](NC(=O)[C@H](CCC(=O)O)NC(=O)[C@H](C)NC(=O)[C@H](CCC(=O)O)NC(=O)[C@H](CCC(=O)O)NC(=O)[C@H](Cc1c[nH]cn1)NC(=O)[C@H](CCCNC(=N)N)NC(=O)[C@H](CCC(=O)O)NC(=O)[C@H](CC(N)=O)NC(=O)[C@H](CCCCN)NC(=O)[C@H](CC(C)C)NC(=O)[C@H](CCCNC(=N)N)NC(=O)[C@H](CCC(N)=O)NC(=O)[C@H](CC(C)C)NC(=O)[C@H](CCC(N)=O)NC(=O)[C@H](C)NC(=O)[C@H](CC(N)=O)NC(=O)[C@H](C)NC(=O)[C@@H](NC(=O)[C@H](CC(C)C)NC(=O)[C@H](CCCCN)NC(=O)[C@H](CCC(=O)O)NC(=O)[C@@H](NC(=O)[C@H](CO)NC(=O)CN)C(C)C)[C@@H](C)O)C(=O)N[C@@H](CCC(=O)O)C(=O)N[C@@H](CCCNC(=N)N)C(=O)N[C@@H](CC(C)C)C(=O)N[C@@H](CCCCN)C(=O)N[C@@H](CO)C(=O)N[C@@H](CCC(=O)O)C(=O)N[C@@H](Cc1ccc(O)cc1)C(=O)O	Plasminogen (PLG, Homo sapiens, UniProt P00747, C188G/E240D/L256Y)	binding, SPR		pH 7.4		kon	50400 M⁻¹ s⁻¹
Nc1nc2c([C@@H]3O[C@@H]4COP(=O)(O)O[C@H]5[C@@H](O)[C@H](c6snc7c(=O)[nH]c(N)nc67)O[C@@H]5COP(=O)(O)O[C@H]4[C@H]3O)snc2c(=O)[nH]1	rocR	substrate, HPLC		10 µM, together with: 100 nM enzyme		cleavage rate constant k2	0.83 ± 0.55 s⁻¹
COC(=O)c1ccc(OC(=O)C2CCN(C(=O)OC(C)(C)C)CC2)cc1	ATP-dependent Clp protease proteolytic subunit (clpP, Staphylococcus aureus, UniProt Q2G036)	enzyme activity, inhibitor				inhibitory concentration	< 1 µM
CCN(Cc1ccccc1)C(=O)CCc1nc(CN2CCN(C(=O)Cc3ccc(OC)c(OC)c3)CC2)no1	Sodium channel protein type 11 subunit alpha (Scn11a, Rattus norvegicus, UniProt O88457)	whole-cell patch clamp	rat DRG neurons	100 nM		V1/2 of activation	-39.5 ± 1.35 mV
N=C(N)NCCCC[C@H](N)C(=O)Nc1ccc2c(CC(N)=O)cc(=O)oc2c1	Aminopeptidase N	enzyme activity, substrate		pH 7.5, 37 °C		Km	27.7 ± 2.3 µM
CC[C@H](C)[C@H](NC(=O)[C@H](CC(N)=O)NC(=O)[C@@H]1CCCN1C(=O)[C@H](CO)NC(=O)[C@H](CC(N)=O)NC(=O)[C@@H](N)CCC(N)=O)C(=O)N[C@@H](Cc1ccccc1)C(=O)NCC(=O)N[C@@H](CCC(N)=O)C(=O)N[C@@H](Cc1c[nH]c2ccccc12)C(=O)N[C@@H](CCSC)C(=O)O	Fsr quorum sensing protein (Enterococcus faecalis, UniProt A0ACD6TCR9)			concentration not given		activity	inactive
CSCC[C@H](N)C(=O)Nc1ccc2c(CC(N)=O)cc(=O)oc2c1	Aminopeptidase N	enzyme activity, substrate		3 µM, pH 7.5, 37 °C	relative to: L-hArg-ACC	relative hydrolysis rate	< 20%
CC(=O)N[C@H]1[C@H]([C@H](O)[C@H](O)CO)O[C@@](OCCCNC(=O)OCc2ccccc2)(C(=O)O)C[C@@H]1O[C@H]1O[C@H](CO[C@]2(C(=O)O)C[C@H](O)[C@@H](NC(C)=O)[C@H]([C@H](O)[C@H](O)CO)O2)[C@H](O)[C@H](O)[C@H]1O	siaD (Neisseria meningitidis, UniProt O33390)	substrate		together with: UDP-Gal		Km	890 ± 100 µM
Nc1nc2c([C@@H]3O[C@@H]4COP(=O)(O)O[C@H]5[C@@H](O)[C@H](n6cnc7c(=O)[nH]c(N)nc76)O[C@@H]5COP(=O)(O)O[C@H]4[C@H]3O)snc2c(=O)[nH]1	rocR	substrate, HPLC		10 µM, together with: 100 nM enzyme		cleavage rate constant k2	3.07 ± 0.25 s⁻¹
CN1/C(=C/C=C/C=C/C2=[N+](CCCCCC(=O)NCCCCCCCCN3[C@@H]4[C@H](C(=O)O)[C@@H](O)[C@H](O)[C@@H](O)[C@@H]43)c3ccccc3C2(C)C)C(C)(C)c2ccccc21 (some centres unmarked)	Heparanase (HPSE, Homo sapiens, UniProt Q9Y251)	inhibitor, competitive ABPP	human platelet lysate			concentration abolishing labeling	3 µM
CC(C)CCN(Cc1ccc(F)cc1)c1nc(C#N)nc(N2CCOCC2)n1	CPL (Toxoplasma gondii, UniProt Q6DMN0)	enzyme activity, inhibitor			relative to: human over Toxoplasma IC50	selectivity ratio	0.94 and 0.9
Cc1cc(O)cc(C)c1CC(N)C(=O)NC1CCNc2c(F)cc(Cc3ccccc3)cc21 (centres unmarked)	Delta-type opioid receptor (Oprd1, Rattus norvegicus, UniProt P33533)	GTPγS binding, agonist	C6 cells expressing DOR		relative to: DPDPE at 10 µM	maximal stimulation	28%
CC(=O)NC(Cc1ccc(Br)c(Cl)c1)C(=O)N[C@@H](C)C(=O)N1CCC[C@H]1C(=O)N1CCC[C@H]1C(=O)N[C@@H](CCC(=O)O)C(=O)N[C@@H](Cc1c[nH]cn1)C(=O)N[C@@H](CO)C(=O)N[C@H](C(=O)N[C@@H](C)C(N)=O)[C@@H](C)OP(=O)(O)O (some centres unmarked)	Glycogen synthase kinase-3 beta (GSK3B, Homo sapiens, UniProt P49841)	enzyme activity, inhibitor		10 µM		inhibition	0.81%
C/C=C1/CN2CCc3c([nH]c4ccccc34)[C@@H]2C[C@@H]1/C(=C\OC)C(=O)OC	5-hydroxytryptamine receptor 1A (HTR1A, Homo sapiens, UniProt P08908)	agonist			relative to: 5-HT	maximal effect	~40%
CC12CC3CC(C)(C1)CC(NC(=O)Nc1ccc(C(=O)N4CCC[C@H](C(N)=O)C4)cc1F)(C3)C2	Bifunctional epoxide hydrolase 2 (EPHX2, Homo sapiens, UniProt P34913)					lipophilic ligand efficiency	7.49
CC[C@H](C)[C@H](NC(=O)[C@H](CC(N)=O)NC(=O)[C@H](CC(N)=O)NC(=O)[C@@H](N)CCCNC(N)=O)C(=O)N1C[C@@H](n2cc([C]34[CH]5[CH]6[CH]7[CH]3[Fe]6754389%10[CH]4[CH]3[CH]8[CH]9[CH]4%10)nn2)C[C@H]1C(=O)N[C@@H](Cc1csc2ccccc12)C(=O)N[C@@H](CO)C(N)=O (some centres unmarked)	Envelope glycoprotein gp160 (env, Human immunodeficiency virus type 1 group M subtype B, UniProt P35961)	ITC		concentration not given, pH 7.4, 25 °C		binding entropy term -TΔS	5.1 ± 2.6 kcal/mol
CC(COC(=O)c1ccccc1)OC(=O)C(N)C(C)C (mixture of isomers)	Serine hydrolase BPHL (BPHL, Homo sapiens, UniProt Q86WA6)	enzyme activity, substrate				Km	460 µM

Some of these lines once more:
Compound	target	test	test system	setting	how to read	endpoint	value
O=C(NC1(Cc2cccc(F)c2)CCC1)c1ccc(S(=O)(=O)F)cc1	Sodium- and chloride-dependent creatine transporter 1 (SLC6A8, Homo sapiens, UniProt P48029, P544L)	PathHunter trafficking	U-2 OS expressing SLC6A8	24 h	relative to: DMSO	maximal surface localization	~2 fold
Cn1cc(-c2cccc(CN3CCC4(CC3)COc3c4ccc4c3CN([C@H]3CCC(=O)NC3=O)C4=O)c2)cn1	Ikzf2/Crbn (Mus musculus, UniProt P81183+Q8C7D2, I391V)		mouse Crbn I391V, thymus	oral, 10 mg/kg single dose, 6 h		degradation	62%
